Measured values gathered from unrelated publications.
Numbered parts are unrelated; each lists some results of a single study.

Study 1
Target: Replicase polyprotein 1ab, main protease (rep, Severe acute respiratory syndrome coronavirus 2, UniProt P0DTD1)
Effect on: enzyme activity
Mode: inhibitor
Compound	IC50 [µM]
C[S+]([O-])CCCCN=C=S (stereo not drawn)	> 20
Sc1nnc(-c2ccccc2Cl)o1	7.71
O=C1C(=Cc2cccnc2)C(=O)c2ccccc21	> 20
O=C(c1cccs1)c1no[n+]([O-])c1C(=O)c1cccs1	> 20

Study 2
Target: Sal-like protein 4, full length isoform B (SALL4, Homo sapiens, UniProt Q9UJQ4-2, residues 1-616)
Technique: universal PBM
Form: double-stranded DNA, one strand shown
Matrix: in vitro
Tested at: not given
Notes: 8-mer, flanks averaged, mean of replicates
Direction: higher = stronger binding
Construct (chain): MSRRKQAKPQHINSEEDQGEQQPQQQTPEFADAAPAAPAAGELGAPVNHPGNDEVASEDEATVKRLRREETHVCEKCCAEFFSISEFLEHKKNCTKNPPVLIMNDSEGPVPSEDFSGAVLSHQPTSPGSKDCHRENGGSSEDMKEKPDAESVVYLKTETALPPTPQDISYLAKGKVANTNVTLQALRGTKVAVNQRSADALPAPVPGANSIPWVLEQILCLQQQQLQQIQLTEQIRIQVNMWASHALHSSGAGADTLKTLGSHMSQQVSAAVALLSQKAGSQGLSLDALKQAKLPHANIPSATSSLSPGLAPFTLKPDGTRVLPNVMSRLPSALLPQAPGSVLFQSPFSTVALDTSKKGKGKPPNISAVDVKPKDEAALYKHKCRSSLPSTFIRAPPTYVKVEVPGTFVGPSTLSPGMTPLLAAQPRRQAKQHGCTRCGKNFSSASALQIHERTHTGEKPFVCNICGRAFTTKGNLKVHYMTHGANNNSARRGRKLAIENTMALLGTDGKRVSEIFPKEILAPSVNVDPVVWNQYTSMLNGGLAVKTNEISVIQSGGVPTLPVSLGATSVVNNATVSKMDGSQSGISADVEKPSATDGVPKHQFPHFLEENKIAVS
Strand	E-score
TATAAGGA	0.3
GTCAATCA	0.162
CTCCCCGC	-0.18
GCGCTCTA	-0.131
GGCACTAC	-0.184
TATAGCAA	0.26
AGTGCCCA	-0.194
CATTAGCA	0.134

Study 3
Cell line: HEK-293T/ACE2
Tested at: 10 µM
Time: 16 h
Relative to: vehicle
Compound	viability [%]
CNC(=O)c1ccccc1Sc1ccc2c(/C=C/c3ccccn3)n[nH]c2c1	65.5
Nc1nc2[nH]cc(CCc3ccc(C(=O)N[C@@H](CCC(=O)O)C(=O)O)cc3)c2c(=O)[nH]1	85.3
NC12CC3CC(CC(C3)C1)C2	100
C[C@]12CCC(=O)C=C1CC[C@@H]1[C@@H]2CC[C@@]2(C)[C@H]1CC[C@]2(C)O	98.8

Study 4
Target: Replicase polyprotein 1ab, nsp13 helicase (rep, Severe acute respiratory syndrome coronavirus 2, UniProt P0DTD1)
Mode: inhibitor
Tested at: 20 µM
Compound	inhibition [%]
O=C1N=C2SCCN2C(=O)C1Cc1ccc(Cl)cc1 (stereo not drawn)	8.99
O=C(O)CCCCCCCCC(=O)O	7.83
Cc1nccc2c1[nH]c1ccccc12	4.69
O=C1C2CCN(CC2)C1(CO)CO	5.47
CCCCCCCCC(=O)NCc1cc(OC)c(O)cc1I	5.63
O=C(c1cc2ccccc2o1)N1CCN(Cc2ccccc2)CC1	5.91
CCOc1ccc2ccccc2c1C(=O)N[C@@H]1C(=O)N2[C@@H]1SC(C)(C)[C@@H]2C(=O)O	5.8
OCCN1CCN(CC/C=C2/c3ccccc3Sc3ccc(C(F)(F)F)cc32)CC1	1.99
O=C1C(CC[S+]([O-])c2ccccc2)C(=O)N(c2ccccc2)N1c1ccccc1 (stereo not drawn)	2.73
c1ccc(C2CN3CCSC3=N2)cc1 (stereo not drawn)	-0.06
Oc1cc2c(cc1O)CN(C(=S)NCCc1ccc(Cl)cc1)CCC2	0.92
Nc1cccc2c1C(=O)N(C1CCC(=O)NC1=O)C2=O (stereo not drawn)	1.73
CC(C)OC(=O)Nc1cccc(Cl)c1	5.26
NCCC(Oc1ccc(C(F)(F)F)cc1)c1ccccc1 (stereo not drawn)	0.17
OCc1c[nH]c2ccccc12	1.24
CC(=O)NC1CCSC1=O (stereo not drawn)	-1.72
Cc1nnc(C(C)C)n1[C@@H]1C[C@H]2CC[C@@H](C1)N2CC[C@H](NC(=O)C1CCC(F)(F)CC1)c1ccccc1	4.66
NCCc1cc(O)c(O)cc1O	43.6

Study 5
Target: Phosphate system positive regulatory protein PHO4, full length, GST-tagged (PHO4, Saccharomyces cerevisiae, UniProt P07270, residues 1-312)
Technique: competition protein-binding microarray
Form: double-stranded DNA, one strand shown
Matrix: in vitro
Tested at: 2 µM
Notes: whole 60-bp probe, lowest competitor level
With: Cbf1 competitor, 0.05 µM
Direction: higher = stronger binding
Constant ends, left off below: … GTCTTGATTCGCTTGACGCTGCTG
Residues (chain): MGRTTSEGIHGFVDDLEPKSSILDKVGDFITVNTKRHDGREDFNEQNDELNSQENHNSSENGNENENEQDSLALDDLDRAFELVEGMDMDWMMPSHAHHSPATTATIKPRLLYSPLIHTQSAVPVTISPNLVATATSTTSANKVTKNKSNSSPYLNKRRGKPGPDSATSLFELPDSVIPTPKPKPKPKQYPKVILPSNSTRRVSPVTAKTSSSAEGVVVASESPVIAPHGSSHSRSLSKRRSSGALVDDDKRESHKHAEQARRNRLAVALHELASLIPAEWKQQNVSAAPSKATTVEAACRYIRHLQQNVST
Strand	fluorescence intensity [a.u.]
TACATTGCTGTATTGCACGGCCCTTGCGGGTATGGC	5930
GTTGCTGCACTTGCTTGCGTGGGTACTTTTTGTCGG	7050
AACCAGTCCAAAAGGTACGTGCAATAAAAGAAGTTG	7750
TTAATATTATACGAAAACGTGCAAAACGGCACAAAC	12300
TGATGTGGTTTCTACAGCTGGGTATTCACAATAAAA	3080
TTCTTGATTAGGACGCCCATGAAGTGGGCCAGCCAA	3360
CGGGGTTAAGTTTGCGCCGTGGGTGGCTTGCAGCAG	6010
GGAAACGACTGCGAACACGTGCAGATGCAAAGGACA	15100

A few entries again (study 5):
Strand	fluorescence intensity [a.u.]
TTCTTGATTAGGACGCCCATGAAGTGGGCCAGCCAA	3360
TGATGTGGTTTCTACAGCTGGGTATTCACAATAAAA	3080
